Assay results pooled from the literature.
Parts stem from different laboratories: compare values within a part only.
Chain of UniProt P29317 (whole entry, looked up): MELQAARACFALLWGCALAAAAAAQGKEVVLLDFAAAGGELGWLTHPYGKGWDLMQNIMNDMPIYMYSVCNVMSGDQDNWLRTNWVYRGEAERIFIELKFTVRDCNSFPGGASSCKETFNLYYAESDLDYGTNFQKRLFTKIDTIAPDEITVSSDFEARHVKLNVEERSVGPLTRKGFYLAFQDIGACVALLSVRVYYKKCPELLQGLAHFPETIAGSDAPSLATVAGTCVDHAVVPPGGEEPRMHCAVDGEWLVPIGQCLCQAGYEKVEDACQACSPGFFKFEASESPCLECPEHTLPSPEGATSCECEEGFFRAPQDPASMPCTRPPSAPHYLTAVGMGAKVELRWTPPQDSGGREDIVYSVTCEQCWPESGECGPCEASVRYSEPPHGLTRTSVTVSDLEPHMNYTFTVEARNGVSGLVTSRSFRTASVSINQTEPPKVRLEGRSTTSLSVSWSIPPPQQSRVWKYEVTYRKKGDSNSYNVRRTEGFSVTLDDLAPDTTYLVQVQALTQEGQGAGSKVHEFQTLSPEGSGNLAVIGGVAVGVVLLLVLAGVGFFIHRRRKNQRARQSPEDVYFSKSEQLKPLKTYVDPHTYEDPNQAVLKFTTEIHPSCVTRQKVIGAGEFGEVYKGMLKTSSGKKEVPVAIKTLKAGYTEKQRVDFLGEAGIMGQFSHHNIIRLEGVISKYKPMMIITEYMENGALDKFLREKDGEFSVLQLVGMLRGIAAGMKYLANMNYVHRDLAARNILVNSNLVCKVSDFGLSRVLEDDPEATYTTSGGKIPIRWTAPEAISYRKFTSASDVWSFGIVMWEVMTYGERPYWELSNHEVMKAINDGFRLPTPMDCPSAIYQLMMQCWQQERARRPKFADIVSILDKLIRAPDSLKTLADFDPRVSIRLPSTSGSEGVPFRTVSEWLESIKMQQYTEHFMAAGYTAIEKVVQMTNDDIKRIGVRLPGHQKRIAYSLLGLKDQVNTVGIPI
Chain of UniProt P49760 (whole entry, looked up): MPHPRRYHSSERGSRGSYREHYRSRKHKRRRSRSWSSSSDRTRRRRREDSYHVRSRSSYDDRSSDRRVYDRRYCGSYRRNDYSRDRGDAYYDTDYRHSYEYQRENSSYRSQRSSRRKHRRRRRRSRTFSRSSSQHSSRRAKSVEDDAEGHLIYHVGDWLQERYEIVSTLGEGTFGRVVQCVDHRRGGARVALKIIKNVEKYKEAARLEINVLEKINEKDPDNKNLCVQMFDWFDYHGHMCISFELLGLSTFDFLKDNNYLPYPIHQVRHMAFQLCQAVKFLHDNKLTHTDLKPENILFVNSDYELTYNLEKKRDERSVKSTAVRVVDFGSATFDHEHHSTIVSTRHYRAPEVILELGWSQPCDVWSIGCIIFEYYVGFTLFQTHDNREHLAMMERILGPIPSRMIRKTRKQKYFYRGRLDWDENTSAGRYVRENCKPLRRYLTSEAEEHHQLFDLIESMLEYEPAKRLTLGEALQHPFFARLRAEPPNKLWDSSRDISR
Chain of UniProt P21127 (whole entry, looked up): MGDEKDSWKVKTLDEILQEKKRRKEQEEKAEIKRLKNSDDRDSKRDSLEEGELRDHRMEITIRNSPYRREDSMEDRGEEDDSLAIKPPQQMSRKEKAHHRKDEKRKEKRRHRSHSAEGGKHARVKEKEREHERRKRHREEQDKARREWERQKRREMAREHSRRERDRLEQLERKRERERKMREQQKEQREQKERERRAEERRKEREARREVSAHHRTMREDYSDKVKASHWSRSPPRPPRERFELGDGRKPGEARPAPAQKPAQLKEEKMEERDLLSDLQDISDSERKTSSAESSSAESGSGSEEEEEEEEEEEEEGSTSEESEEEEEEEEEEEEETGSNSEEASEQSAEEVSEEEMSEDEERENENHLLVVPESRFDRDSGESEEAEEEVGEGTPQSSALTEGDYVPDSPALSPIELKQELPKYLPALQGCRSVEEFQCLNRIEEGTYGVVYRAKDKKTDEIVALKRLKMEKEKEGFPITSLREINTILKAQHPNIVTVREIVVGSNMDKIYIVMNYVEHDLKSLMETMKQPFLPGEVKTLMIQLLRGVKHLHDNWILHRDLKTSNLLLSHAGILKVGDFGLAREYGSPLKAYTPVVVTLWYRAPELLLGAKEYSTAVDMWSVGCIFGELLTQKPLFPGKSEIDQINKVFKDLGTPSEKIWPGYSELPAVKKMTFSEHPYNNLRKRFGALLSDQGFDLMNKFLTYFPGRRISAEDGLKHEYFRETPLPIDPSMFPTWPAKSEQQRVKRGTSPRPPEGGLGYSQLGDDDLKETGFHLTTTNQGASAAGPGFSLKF
Chain of UniProt Q05513 (whole entry, looked up): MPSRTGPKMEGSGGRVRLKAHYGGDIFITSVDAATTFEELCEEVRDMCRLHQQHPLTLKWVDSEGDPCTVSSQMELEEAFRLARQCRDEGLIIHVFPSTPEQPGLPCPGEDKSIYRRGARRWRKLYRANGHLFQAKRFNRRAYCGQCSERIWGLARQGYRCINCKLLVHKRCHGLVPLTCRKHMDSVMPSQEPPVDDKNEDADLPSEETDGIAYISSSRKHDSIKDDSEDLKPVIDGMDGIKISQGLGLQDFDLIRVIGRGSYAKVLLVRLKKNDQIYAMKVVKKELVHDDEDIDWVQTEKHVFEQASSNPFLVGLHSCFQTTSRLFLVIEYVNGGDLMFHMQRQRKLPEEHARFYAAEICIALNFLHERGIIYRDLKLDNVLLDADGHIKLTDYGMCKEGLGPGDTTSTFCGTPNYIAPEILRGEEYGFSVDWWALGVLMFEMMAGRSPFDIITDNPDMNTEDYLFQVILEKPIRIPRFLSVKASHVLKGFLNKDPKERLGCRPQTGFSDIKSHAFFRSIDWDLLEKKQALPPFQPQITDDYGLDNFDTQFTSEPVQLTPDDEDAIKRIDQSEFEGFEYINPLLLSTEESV
Chain of UniProt Q14289 (whole entry, looked up): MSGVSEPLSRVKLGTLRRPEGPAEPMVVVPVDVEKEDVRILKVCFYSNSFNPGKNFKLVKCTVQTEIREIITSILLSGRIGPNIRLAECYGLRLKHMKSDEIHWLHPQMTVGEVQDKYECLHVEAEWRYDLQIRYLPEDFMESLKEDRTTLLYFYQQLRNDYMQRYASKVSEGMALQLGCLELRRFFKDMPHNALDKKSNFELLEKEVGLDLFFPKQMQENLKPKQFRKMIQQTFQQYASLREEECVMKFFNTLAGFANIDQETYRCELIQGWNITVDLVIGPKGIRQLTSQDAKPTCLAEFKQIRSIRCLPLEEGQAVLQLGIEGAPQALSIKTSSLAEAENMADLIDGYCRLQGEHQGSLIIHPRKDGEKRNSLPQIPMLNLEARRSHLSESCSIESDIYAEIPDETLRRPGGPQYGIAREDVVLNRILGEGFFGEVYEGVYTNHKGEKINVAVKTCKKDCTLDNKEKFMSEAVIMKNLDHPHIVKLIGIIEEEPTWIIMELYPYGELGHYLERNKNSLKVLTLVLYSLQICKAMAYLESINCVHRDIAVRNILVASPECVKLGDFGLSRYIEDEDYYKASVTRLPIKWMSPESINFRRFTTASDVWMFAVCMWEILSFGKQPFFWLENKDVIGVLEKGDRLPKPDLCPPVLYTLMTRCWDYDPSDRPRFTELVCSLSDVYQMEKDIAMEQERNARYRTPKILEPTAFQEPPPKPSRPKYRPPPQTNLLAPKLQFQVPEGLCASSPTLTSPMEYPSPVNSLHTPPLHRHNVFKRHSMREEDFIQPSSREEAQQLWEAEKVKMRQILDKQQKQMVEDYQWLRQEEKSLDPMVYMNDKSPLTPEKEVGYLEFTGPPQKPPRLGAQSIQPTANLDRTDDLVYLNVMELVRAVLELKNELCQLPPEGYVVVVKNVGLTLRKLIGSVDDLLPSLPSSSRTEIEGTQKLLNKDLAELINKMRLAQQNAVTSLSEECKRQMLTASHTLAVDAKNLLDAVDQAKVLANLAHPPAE
Chain of UniProt P00519 (whole entry, unmodified, looked up): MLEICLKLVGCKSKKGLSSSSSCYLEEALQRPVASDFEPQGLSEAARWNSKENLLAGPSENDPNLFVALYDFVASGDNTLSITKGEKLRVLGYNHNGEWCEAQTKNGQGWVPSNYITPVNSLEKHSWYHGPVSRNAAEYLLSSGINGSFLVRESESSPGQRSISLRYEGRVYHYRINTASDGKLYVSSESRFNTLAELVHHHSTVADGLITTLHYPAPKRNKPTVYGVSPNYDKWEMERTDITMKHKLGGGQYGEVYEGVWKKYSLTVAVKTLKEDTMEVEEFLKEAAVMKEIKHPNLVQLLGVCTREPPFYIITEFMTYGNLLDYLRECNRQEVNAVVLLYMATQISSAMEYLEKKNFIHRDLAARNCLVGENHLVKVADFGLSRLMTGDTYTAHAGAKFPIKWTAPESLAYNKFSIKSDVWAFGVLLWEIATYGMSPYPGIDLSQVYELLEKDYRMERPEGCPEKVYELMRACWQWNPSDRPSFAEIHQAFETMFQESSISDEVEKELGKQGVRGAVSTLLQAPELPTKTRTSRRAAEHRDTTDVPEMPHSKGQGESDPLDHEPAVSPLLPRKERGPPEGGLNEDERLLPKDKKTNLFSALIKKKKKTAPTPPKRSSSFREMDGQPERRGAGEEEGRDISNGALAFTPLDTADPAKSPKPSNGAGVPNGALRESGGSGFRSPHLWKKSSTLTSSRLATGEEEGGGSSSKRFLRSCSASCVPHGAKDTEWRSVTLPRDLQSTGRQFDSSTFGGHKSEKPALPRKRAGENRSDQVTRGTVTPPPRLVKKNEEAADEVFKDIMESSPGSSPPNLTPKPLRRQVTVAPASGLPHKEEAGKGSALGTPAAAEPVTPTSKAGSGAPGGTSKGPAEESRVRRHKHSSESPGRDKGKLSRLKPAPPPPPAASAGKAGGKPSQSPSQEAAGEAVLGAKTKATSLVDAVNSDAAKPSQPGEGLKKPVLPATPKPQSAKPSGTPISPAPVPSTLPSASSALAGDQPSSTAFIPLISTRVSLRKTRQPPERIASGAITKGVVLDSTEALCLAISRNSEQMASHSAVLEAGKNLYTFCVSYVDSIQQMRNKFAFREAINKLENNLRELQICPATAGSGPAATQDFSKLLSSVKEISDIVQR

Study 1 — action: inhibitor; concentration: 10 µM; relative to: control
Target: Diamine acetyltransferase 1 (Homo sapiens, UniProt P21673)
Residues (P21673 1-171): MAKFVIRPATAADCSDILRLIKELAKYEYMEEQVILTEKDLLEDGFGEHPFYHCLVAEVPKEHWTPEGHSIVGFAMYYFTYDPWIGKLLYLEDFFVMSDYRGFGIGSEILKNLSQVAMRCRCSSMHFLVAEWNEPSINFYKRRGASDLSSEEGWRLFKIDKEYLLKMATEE
Structure (SMILES)	remaining activity
C[C@@H]1O[C@@H](OC[C@H]2O[C@@H](Oc3c(-c4ccc(O)cc4)oc4cc(O[C@@H]5O[C@@H](C)[C@H](O)[C@@H](O)[C@H]5O)cc(O)c4c3=O)[C@H](O)[C@@H](O)[C@H]2O)[C@H](O)[C@H](O)[C@H]1O	98.1%
CCCCCCCCCCCCCCCO	87.7%
COc1ccc(C2COc3cc(O)ccc3C2)c(O)c1OC (stereo not shown)	68.4%
CCCCCCCC/C=C\CCCCCCCCCC(=O)O	102%
C[C@H](Cc1ccc(O)c(O)c1)[C@@H](C)Cc1ccc(O)c(O)c1	108%
O=C(O)CC(=O)O	91%
CCCCCCCCCCCCCCCCCCCCCCCCCCCCCC(=O)O	80.5%
O=C1C[C@@H](c2ccc(O)cc2)Oc2cc(O)cc(O)c21	89.6%
CC1=CC[C@@H](C(C)(C)O)CC1	112%
C[C@@H]1OC(O)[C@@H](O)[C@H](O)[C@@H]1O (single isomer, unassigned; (-))	112%
N[C@@H](CO)C(=O)O	91.8%
COc1cc(-c2coc3c([C@@H]4O[C@H](CO)[C@@H](O)[C@H](O)[C@H]4O)c(O)ccc3c2=O)ccc1O	78.7%
Oc1cccc(O)c1O	88.5%
COc1cc(O)cc(CCc2cccc(O)c2)c1	95.8%
OCc1ccc(O)cc1	95.4%

Study 2 — SMILES: Cc1nc2cc3nc(-c4cccs4)cnc3cc2n1C; read-out: enzyme activity; action: inhibitor; concentration: 0.5 µM; relative to: control
target	remaining activity
CLK2 (Homo sapiens, UniProt P49760)	95.3%
MAP3K20 (Homo sapiens, UniProt Q9NYL2)	89.1%
SGK2 (Homo sapiens, UniProt Q9HBY8)	115%
RPS6KA3 (Homo sapiens, UniProt P51812)	96.3%
IGF1R (Homo sapiens, UniProt P08069)	96.4%
Cyclin-dependent kinase 2, with cyclin E (CDK2, Homo sapiens, UniProt P24941)	91.4%
TYRO3 (Homo sapiens, UniProt Q06418)	103%
EPHA2 (Homo sapiens, UniProt P29317)	107%
CSNK1D (Homo sapiens, UniProt P48730)	95.9%
PAK1 (Homo sapiens, UniProt Q13153)	86.6%
PAK6 (Homo sapiens, UniProt Q9NQU5)	96.6%
CAMK1 (Homo sapiens, UniProt Q14012)	98.1%
SIK2 (Homo sapiens, UniProt Q9H0K1)	112%
CAMKK1 (Homo sapiens, UniProt Q8N5S9)	127%
PRKCQ (Homo sapiens, UniProt Q04759)	100%
PRKCZ (Homo sapiens, UniProt Q05513)	95.6%
FLT1 (Homo sapiens, UniProt P17948)	93.6%
SRPK1 (Homo sapiens, UniProt Q96SB4)	107%
TEC (Homo sapiens, UniProt P42680)	158%
JAK1 (Homo sapiens, UniProt P23458)	105%
CSNK1E (Homo sapiens, UniProt P49674)	94.5%
CLK1 (Homo sapiens, UniProt P49759)	111%

Study 3 — concentration: 1 µM
SMILES: O=S(=O)(NC1CCC(c2cc(F)ccc2F)(S(=O)(=O)c2ccc(Cl)cc2)CC1)C(F)(F)F (stereo not shown)
target	test	remaining binding
PIK3CA (Homo sapiens, UniProt P42336, E545A)	cell-free assay, competition with immobilised ligand	95%
Tyrosine-protein kinase ABL1, phosphorylated (ABL1, Homo sapiens, UniProt P00519, F317I)	binding	100%
EPHA2 (Homo sapiens, UniProt P29317)	cell-free assay, competition with immobilised ligand	84%
STK17B (Homo sapiens, UniProt O94768)	cell-free assay, competition with immobilised ligand	97%
BRAF (Homo sapiens, UniProt P15056)	cell-free assay, competition with immobilised ligand	93%
FLT3 (Homo sapiens, UniProt P36888, R834Q)	cell-free assay, competition with immobilised ligand	100%
EGFR (Homo sapiens, UniProt P00533, G719C)	cell-free assay, competition with immobilised ligand	100%
STK24 (Homo sapiens, UniProt Q9Y6E0)	cell-free assay, competition with immobilised ligand	99%
PAK5 (Homo sapiens, UniProt Q9P286)	cell-free assay, competition with immobilised ligand	100%
MAP4K3 (Homo sapiens, UniProt Q8IVH8)	cell-free assay, competition with immobilised ligand	100%
FES (Homo sapiens, UniProt P07332)	cell-free assay, competition with immobilised ligand	88%
CDK4 (Homo sapiens, UniProt P11802)	cell-free assay, competition with immobilised ligand	81%
PTK2B (Homo sapiens, UniProt Q14289)	cell-free assay, competition with immobilised ligand	100%
SRPK3 (Homo sapiens, UniProt Q9UPE1)	cell-free assay, competition with immobilised ligand	100%
PIP5K1A (Homo sapiens, UniProt Q99755)	cell-free assay, competition with immobilised ligand	100%
STK35 (Homo sapiens, UniProt Q8TDR2)	cell-free assay, competition with immobilised ligand	100%
PNCK (Homo sapiens, UniProt Q6P2M8)	cell-free assay, competition with immobilised ligand	100%
CSF1R (Homo sapiens, UniProt P07333)	cell-free assay, competition with immobilised ligand	100%
RIPK2 (Homo sapiens, UniProt O43353)	cell-free assay, competition with immobilised ligand	84%
ALK (Homo sapiens, UniProt Q9UM73)	cell-free assay, competition with immobilised ligand	100%
MATK (Homo sapiens, UniProt P42679)	cell-free assay, competition with immobilised ligand	100%
TEK (Homo sapiens, UniProt Q02763)	cell-free assay, competition with immobilised ligand	85%
CDK11B (Homo sapiens, UniProt P21127)	cell-free assay, competition with immobilised ligand	82%
EPHB6 (Homo sapiens, UniProt O15197)	cell-free assay, competition with immobilised ligand	100%
GRK2 (Homo sapiens, UniProt P25098)	cell-free assay, competition with immobilised ligand	73%

Study 4 — organism: Sarcocystis neurona; read-out: parasite growth; concentration: 10 µM; time: 96 h; notes: second screen; relative to: untreated
Structure (SMILES)	log2 fold change
O=C1CCc2ccc(OCCCCN3CCN(c4cccc(Cl)c4Cl)CC3)cc2N1	0.04
c1ccc2[nH]c(-c3cscn3)nc2c1	2.36
CC(C)(C)NCC(O)c1cc(O)cc(O)c1 (stereo not shown)	0.51
CN(CCCN1c2ccccc2CCc2ccccc21)CC(=O)c1ccc(Cl)cc1	-0.0535
CCCN1C[C@H](CSC)C[C@@H]2c3cccc4[nH]cc(c34)C[C@H]21	0.27
CC(=O)CCCCn1c(=O)c2c(ncn2C)n(C)c1=O	0.11
c1ccc(-c2ccc(C(c3ccccc3)n3ccnc3)cc2)cc1 (stereo not shown)	-0.63
CC(=O)OCC(=O)[C@@]1(O)CC[C@H]2[C@@H]3CCC4=CC(=O)C=C[C@]4(C)[C@H]3[C@@H](O)C[C@@]21C	-0.07
CC/C(=C(\c1ccccc1)c1ccc(OCCN(C)C)cc1)c1ccccc1	0.36
COc1ccc2[nH]c([S+]([O-])Cc3ncc(C)c(OC)c3C)nc2c1 (stereo not shown)	0.45
C#C[C@]1(O)CC[C@H]2[C@@H]3CCc4cc(OC)ccc4[C@H]3CC[C@@]21C	0.88

Some of these lines once more (study 2):
target	remaining activity
MAP3K20 (Homo sapiens, UniProt Q9NYL2)	89.1%
CLK2 (Homo sapiens, UniProt P49760)	95.3%
PAK1 (Homo sapiens, UniProt Q13153)	86.6%
CLK1 (Homo sapiens, UniProt P49759)	111%
RPS6KA3 (Homo sapiens, UniProt P51812)	96.3%
PRKCZ (Homo sapiens, UniProt Q05513)	95.6%
TEC (Homo sapiens, UniProt P42680)	158%
EPHA2 (Homo sapiens, UniProt P29317)	107%
SGK2 (Homo sapiens, UniProt Q9HBY8)	115%
CSNK1D (Homo sapiens, UniProt P48730)	95.9%
CAMK1 (Homo sapiens, UniProt Q14012)	98.1%
CSNK1E (Homo sapiens, UniProt P49674)	94.5%
